Results gathered from unrelated publications.
Lines come from different studies, so protocols differ.
Target: Muscarinic acetylcholine receptor M3 (CHRM3, Homo sapiens, UniProt P20309)
Chain of UniProt P20309 (whole entry, looked up): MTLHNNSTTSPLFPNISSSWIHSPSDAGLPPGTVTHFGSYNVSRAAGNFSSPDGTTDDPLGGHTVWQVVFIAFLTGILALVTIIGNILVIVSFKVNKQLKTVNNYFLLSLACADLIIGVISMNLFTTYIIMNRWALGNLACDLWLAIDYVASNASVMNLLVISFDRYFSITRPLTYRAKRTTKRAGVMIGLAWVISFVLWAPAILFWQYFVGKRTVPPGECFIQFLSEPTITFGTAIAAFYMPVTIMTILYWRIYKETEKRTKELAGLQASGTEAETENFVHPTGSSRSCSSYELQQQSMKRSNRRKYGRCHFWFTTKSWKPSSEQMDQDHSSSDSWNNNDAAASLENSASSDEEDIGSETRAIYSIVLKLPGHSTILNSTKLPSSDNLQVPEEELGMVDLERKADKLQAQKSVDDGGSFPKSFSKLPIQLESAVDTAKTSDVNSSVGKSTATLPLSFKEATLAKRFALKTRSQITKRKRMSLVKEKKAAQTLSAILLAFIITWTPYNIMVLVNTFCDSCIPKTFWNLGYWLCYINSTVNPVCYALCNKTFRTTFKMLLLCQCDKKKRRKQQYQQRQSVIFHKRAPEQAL

`O=C(Nc1cccnn1)N1CCC(=Cc2cccc(Oc3ccc(C(F)(F)F)cn3)c2)CC1` has an inhibition of 28% (binding; 50 µM, with: [3H]N-methylscopolamine).
`CCN(CC)CCCC[C@H](NC(=O)[C@H](CC(C)C)NC(=O)[C@H](C)NC(=O)[C@H](Cc1ccccc1)NC(=O)c1ccc(C(C)(C)C)cc1)C(=O)N[C@@H](CO)C(=O)OC` gave a specific binding of 93.2% (antagonist, radioligand binding; 10 µM; reference: control binding).
For `Cn1cccc1-c1cccnc1`, the inhibition was -9.79% (binding; 50 µM).
The activation of `CN1CCN(c2cc(-c3ccncc3)c(-c3ccc4ccccc4c3)nn2)CC1` is reported as -0.7% (agonist, FLIPR; 12.5 µM).
`Nc1ncc(-c2nc(N3CCOCC3)nc(N3CCOCC3)n2)c(C(F)F)n1` has a radioligand binding of 116% (10 µM, with: antagonist radioligand).
With `Clc1cccc(N2CCNCC2)c1Cl` the Emax was under 10% (ERK1/2 phosphorylation, agonist; CHO cells).
The inhibition of `Cc1ccc(S(=O)(=O)n2c(N)nc3ccccc32)cc1` is reported as 73.2% (10 µM).
`O=C(Nc1cnccc1Cl)N1CCN(Cc2ccc3c(c2)OC(F)(F)O3)CC1` has an inhibition of 7% (binding; 10 µM, with: [3H]N-methylscopolamine).
`c1cc(N2CCNCC2)c2cc[nH]c2c1` gave an Emax of under 10% (ERK1/2 phosphorylation, agonist; CHO cells).

Some of these lines once more:
For `Cn1cccc1-c1cccnc1`, the inhibition was -9.79% (binding; 50 µM).
